Experimental data from different studies.
Each line is one published result; not all experiments were run side by side. ± marks the error that the study gave.
Organism: Plasmodium falciparum

Cc1ccc(C(C)C)cc1.[Cl][Ru+].[O-]c1ccccc1C=NCCNc1ccnc2cc(Cl)ccc12 gave an IC50 of 1300 ± 100 nM (parasite growth, parasite lactate dehydrogenase; Dd2 chloroquine-resistant).
Cc1ccc2c(c1)[n+]([O-])c(C#N)c(-c1ccco1)[n+]2[O-] gave an IC50 of 560 ± 10 nM (parasite growth, [3H]hypoxanthine incorporation; K1 chloroquine-resistant).
With C#CCOc1ccc(C=NNC(=N)NN=Cc2ccc(OCC#C)cc2)cc1 the IC50 was 376 nM (parasite growth, SYBR Green; Tm90-C2B, multidrug and atovaquone resistant; 72 h).
For O=C1C(O)=C(CN2CCNCC2)C(=O)c2ccccc21, the IC50 was 110000 nM (parasite growth; W2; drug-resistant strain, blood stage).
CC[C@H](C)[C@@H]1NC(=O)[C@H](CCCCN)NC(=O)[C@H](CCCNC(=N)N)NC(=O)[C@H](Cc2ccc(O)cc2)NC(=O)[C@H](CC(C)C)NC(=O)[C@@H]2CCCN2C(=O)[C@H](C)NC(=O)CNC(=O)CNC(=O)[C@H](CO)NC(=O)CNC(=O)CNC(=O)[C@H](CO)NC(=O)[C@H](CCC(=O)O)NC(=O)[C@H](CC(C)C)NC(=O)[C@H](CC(C)C)NC(=O)[C@H](CCCCN)NC(=O)[C@H](CCCCN)NC(=O)[C@H]([C@@H](C)CC)NC(=O)[C@H]([C@@H](C)CC)NC(=O)[C@H](CCCCN)NC(=O)[C@H](CCCNC(=N)N)NC(=O)[C@H](Cc2ccc(O)cc2)NC(=O)[C@H](CC(C)C)NC(=O)[C@@H]2CCCN2C(=O)CNC(=O)CNC(=O)[C@@H](NC(=O)CN)CSSC[C@@H](C(N)=O)NC(=O)[C@H](CC(C)C)NC(=O)[C@H](CCCCN)NC(=O)[C@H](CCCCN)NC(=O)[C@H]([C@@H](C)CC)NC1=O gave an IC50 of 5000 ± 200 nM (parasite growth; 3D7; 72 h, Albumax II medium, no serum).
Cc1[nH]c(C=NC23CC4CC(CC(C4)C2)C3)c(C)c1-c1ccc[nH]1 gave an IC50 of 2000 nM (parasite growth; 7G8, chloroquine-resistant).
CC[C@H](C)[C@@H]1NC(=O)[C@H](CCCCN)NC(=O)[C@H](CCCCN)NC(=O)[C@H](Cc2ccc(O)cc2)NC(=O)[C@H](CC(C)C)NC(=O)[C@@H]2CCCN2C(=O)[C@H](C)NC(=O)CNC(=O)CNC(=O)[C@H](CO)NC(=O)CNC(=O)CNC(=O)[C@H](CCCNC(=N)N)NC(=O)[C@H](CCC(=O)O)NC(=O)[C@H](CC(C)C)NC(=O)[C@H](Cc2c[nH]cn2)NC(=O)[C@H](CCCCN)NC(=O)[C@H](CCCCN)NC(=O)[C@H]([C@@H](C)CC)NC(=O)[C@H]([C@@H](C)CC)NC(=O)[C@H](CCCCN)NC(=O)[C@H](CCCCN)NC(=O)[C@H](Cc2ccc(O)cc2)NC(=O)[C@H](CC(C)C)NC(=O)[C@@H]2CCCN2C(=O)CNC(=O)CNC(=O)[C@@H](NC(=O)CN)CSSC[C@@H](C(N)=O)NC(=O)[C@H](Cc2c[nH]cn2)NC(=O)[C@H](CCCCN)NC(=O)[C@H](CCCCN)NC(=O)[C@H]([C@@H](C)CC)NC1=O gave an IC50 of > 67500 nM (parasite growth; 3D7; 72 h, 5% serum plus Albumax II).
OCCCCCCOCCCc1cccnc1 has an IC50 of 211000 ± 12700 nM (anti-HRPII ELISA; W2 chloroquine-resistant; 72 h).
C[C@H]1[C@H](OC(=O)CCC(=O)O)O[C@@H]2O[C@@]3(C)CC[C@H]4[C@H](C)CC[C@@H]1[C@@]24OO3 has an IC50 of < 1 µg/mL (parasite growth; 48 h, drug-resistant strain, blood stage).
For CC[C@H](C)[C@@H]1NC(=O)[C@H](CCCCN)NC(=O)[C@H](CCCCN)NC(=O)[C@H](Cc2ccc(O)cc2)NC(=O)[C@H](CC(C)C)NC(=O)[C@@H]2CCCN2C(=O)CNC(=O)CNC(=O)[C@@H](N)CSSC[C@@H](C(=O)N[C@@H](CCC(=O)O)C(=O)N[C@@H](CO)C(N)=O)NC(=O)[C@H](CC(C)C)NC(=O)[C@H](CCCCN)NC(=O)[C@H](CCCCN)NC(=O)[C@H]([C@@H](C)CC)NC(=O)[C@H]([C@@H](C)CC)NC(=O)[C@H](CCCCN)NC(=O)[C@H](CCCCN)NC(=O)[C@H](Cc2ccc(O)cc2)NC(=O)[C@H](CC(C)C)NC(=O)[C@@H]2CCCN2C(=O)[C@H](C)NC(=O)CNC(=O)CNC(=O)[C@H](CO)NC(=O)CNC(=O)CNC(=O)[C@H](CO)NC(=O)[C@H](CCC(=O)O)NC(=O)[C@H](CC(C)C)NC(=O)[C@H](CC(C)C)NC(=O)[C@H](CCCCN)NC(=O)[C@H](CCCCN)NC(=O)[C@H]([C@@H](C)CC)NC1=O, the IC50 was 12500 ± 800 nM (parasite growth; 3D7; 72 h, Albumax II medium, no serum).
COC1=CC(c2ccc[nH]2)=NC1=CNC1CCCC1 gave an IC50 of 45 nM (parasite growth; 7G8, chloroquine-resistant).
With COc1ccc2c(c1)C1CC(C)(N2)c2c(C)nc3ccc(OC)cc3c21 (stereo not shown) the IC50 was 11.3 ± 1.09 nM (parasite growth, SYBR green I; Cam3.1 R539T (MRA1240)).
Cc1[nH]c2ccccc2c1C1CCN(CC2CCC(NC(=O)/C=C/c3ccc(Cl)c(Cl)c3)CC2)CC1 (stereo not shown) has an IC50 of 45.8 ± 5.11 nM (parasite growth, flow cytometry; 3D7; 72 h).
For CC[C@H](C)[C@@H]1NC(=O)[C@H](CCCCN)NC(=O)[C@H](CCCCN)NC(=O)[C@H](Cc2ccc(O)cc2)NC(=O)[C@H](CC(C)C)NC(=O)[C@@H]2CCCN2C(=O)[C@H](C)NC(=O)CNC(=O)CNC(=O)[C@H](CO)NC(=O)CNC(=O)CNC(=O)[C@H](CO)NC(=O)[C@H](CCCCN)NC(=O)[C@H](CC(C)C)NC(=O)[C@H](CC(C)C)NC(=O)[C@H](CCCCN)NC(=O)[C@H](CCCNC(=N)N)NC(=O)[C@H]([C@@H](C)CC)NC(=O)[C@H]([C@@H](C)CC)NC(=O)[C@H](CCCCN)NC(=O)[C@H](CCCCN)NC(=O)[C@H](Cc2ccc(O)cc2)NC(=O)[C@H](CC(C)C)NC(=O)[C@@H]2CCCN2C(=O)CNC(=O)CNC(=O)[C@@H](NC(=O)CN)CSSC[C@@H](C(N)=O)NC(=O)[C@H](CC(C)C)NC(=O)[C@H](CCCCN)NC(=O)[C@H](CCCNC(=N)N)NC(=O)[C@H]([C@@H](C)CC)NC1=O, the IC50 was 16400 ± 2000 nM (parasite growth; 3D7; 72 h, 5% serum plus Albumax II).
With CCC1=C(C)C(=CNC2CCCCCCC2)N=C1c1ccc[nH]1 the IC50 was 75 nM (parasite growth; 7G8, chloroquine-resistant).
For COc1cccc2c(-c3ccc(O)c4c3CCN=C4)ccc(OC(C)C)c12, the IC50 was 285 nM (parasite growth, SYBR Green; W2; 96 h, drug-resistant strain, blood stage).
Clc1ccc(C2=CC(c3ccc[nH]3)=NC2=CNC23CC4CC(CC(C4)C2)C3)cc1 gave an IC50 of 126 nM (parasite growth; 7G8, chloroquine-resistant).
CN(C)CCNC(=O)/C=C/[C@H](Cc1ccccc1)Nc1ccnc2cc(Cl)ccc12 gave an IC50 of 142 ± 56.7 nM (parasite growth, SYTOX green flow cytometry; K1 chloroquine-resistant; 48 h, ring stage).
With CCCCN1C(=O)c2ccc3c4c(ccc(c24)C1=O)C(=O)N(CCNc1c2ccc(Cl)cc2nc2ccc(OC)cc12)C3=O the IC50 was 52.2 nM (parasite growth, SYBR Green; W2; 72 h, drug-resistant strain, blood stage).
For Oc1c(CN(Cc2ccccn2)Cc2ccccn2)cc(CCn2cc(COCCOCCOCCOCc3cn(CCc4cc(CN(Cc5ccccn5)Cc5ccccn5)c(O)c(CN(Cc5ccccn5)Cc5ccccn5)c4)nn3)nn2)cc1CN(Cc1ccccn1)Cc1ccccn1, the IC50 was 142 ± 34 nM (parasite growth, SYBR Green I; 3D7; 72 h).
CCC1=C(C)C(c2ccc[nH]2)=NC1=CNC12CC3CC(CC(C3)C1)C2 gave an IC50 of 14 nM (parasite growth; Dd2, chloroquine-resistant).
The IC50 of COc1cc(O)c(-c2ccc(OC)c3c(OC)cc(C)cc23)c2c1[C@H](C)N(C)[C@H](C)C2 is reported as 1410 nM (parasite growth; K1; drug-resistant strain, blood stage).
For CCC1=C(C)C(=CNC23CC4CC(CC(C4)C2)C3)N=C1c1ccc[nH]1, the IC50 was 3.6 nM (parasite growth; 7G8, chloroquine-resistant).
CC[C@H](C)[C@@H]1NC(=O)[C@H](CCCNC(=N)N)NC(=O)[C@H](CCCNC(=N)N)NC(=O)[C@H](Cc2ccc(O)cc2)NC(=O)[C@H](CC(C)C)NC(=O)[C@@H]2CCCN2C(=O)[C@H](C)NC(=O)CNC(=O)CNC(=O)[C@H](CO)NC(=O)CNC(=O)CNC(=O)[C@H](CO)NC(=O)[C@H](CCC(=O)O)NC(=O)[C@H](CC(C)C)NC(=O)[C@H](CC(C)C)NC(=O)[C@H](CCCNC(=N)N)NC(=O)[C@H](CCCNC(=N)N)NC(=O)[C@H]([C@@H](C)CC)NC(=O)[C@H]([C@@H](C)CC)NC(=O)[C@H](CCCNC(=N)N)NC(=O)[C@H](CCCNC(=N)N)NC(=O)[C@H](Cc2ccc(O)cc2)NC(=O)[C@H](CC(C)C)NC(=O)[C@@H]2CCCN2C(=O)CNC(=O)CNC(=O)[C@@H](NC(=O)CN)CSSC[C@@H](C(N)=O)NC(=O)[C@H](CC(C)C)NC(=O)[C@H](CCCNC(=N)N)NC(=O)[C@H](CCCNC(=N)N)NC(=O)[C@H]([C@@H](C)CC)NC1=O gave an IC50 of 4800 ± 200 nM (parasite growth; 3D7; 72 h, Albumax II medium, no serum).
The IC50 of CCc1c(-c2ccc[nH]2)c[nH]c1C=NC12CC3CC(CC(C3)C1)C2 is reported as 1230 nM (parasite growth; Dd2, chloroquine-resistant).
For CC1CCC(C(C)(C)C(=O)Nc2ccc(Oc3ccccc3)cc2)CC1 (stereo not shown), the IC50 was 48 nM (parasite proliferation, SYBR Green; 3D7; 72 h).
CCCCNCC(O)Cn1c2ccccc2c2ccccc21 (stereo not shown) has an IC50 of 334 ± 67 nM (SYBR Green I; Dd2 chloroquine-resistant; 72 h).
With C=CC1CN2CCC1CC2C(OC(=O)NCCCCCCNC(=O)OC(c1ccnc2ccc(OC)cc12)C1CC2CCN1CC2C=C)c1ccnc2ccc(OC)cc12 (stereo not shown) the IC50 was 32 ± 5.4 nM (parasite growth; FCB, chloroquine-resistant).
The IC50 of CCC1=CC(c2ccc[nH]2)=NC1=CNC1CCCCCC1 is reported as > 250 nM (parasite growth; 7G8, chloroquine-resistant).
With CC[C@H](C)[C@@H]1NC(=O)[C@H](CCCCN)NC(=O)[C@H](CCCCN)NC(=O)[C@H](Cc2ccc(O)cc2)NC(=O)[C@H](CC(C)C)NC(=O)[C@@H]2CCCN2C(=O)[C@H](C)NC(=O)CNC(=O)CNC(=O)[C@H](CO)NC(=O)CNC(=O)CNC(=O)[C@H](CO)NC(=O)[C@H](CCC(=O)O)NC(=O)[C@H](CC(C)C)NC(=O)[C@H](CC(C)C)NC(=O)[C@H](CCCCN)NC(=O)[C@H](CCCCN)NC(=O)[C@H]([C@@H](C)CC)NC(=O)[C@H]([C@@H](C)CC)NC(=O)[C@H](CCCCN)NC(=O)[C@H](CCCCN)NC(=O)[C@H](Cc2ccc(O)cc2)NC(=O)[C@H](CC(C)C)NC(=O)[C@@H]2CCCN2C(=O)[C@H](C)NC(=O)CNC(=O)[C@@H]2CSSC[C@H](NC(=O)[C@H](CC(C)C)NC(=O)[C@H](CCCCN)NC(=O)[C@H](CCCCN)NC(=O)[C@H]([C@@H](C)CC)NC1=O)C(=O)N[C@@H](CCC(N)=O)C(=O)N[C@@H](CC(N)=O)C(=O)NCC(=O)N2 the IC50 was 19100 ± 1900 nM (parasite growth; 3D7; 72 h, Albumax II medium, no serum).
O=C1C(O)=C(I)C(=O)c2ccccc21 has an IC50 of > 50000 nM (parasite growth, SYBR Green; F32; drug-resistant strain, blood stage).

A few entries again:
With COc1ccc2c(c1)C1CC(C)(N2)c2c(C)nc3ccc(OC)cc3c21 (stereo not shown) the IC50 was 11.3 ± 1.09 nM (parasite growth, SYBR green I; Cam3.1 R539T (MRA1240)).
Cc1[nH]c2ccccc2c1C1CCN(CC2CCC(NC(=O)/C=C/c3ccc(Cl)c(Cl)c3)CC2)CC1 (stereo not shown) has an IC50 of 45.8 ± 5.11 nM (parasite growth, flow cytometry; 3D7; 72 h).
For CC[C@H](C)[C@@H]1NC(=O)[C@H](CCCCN)NC(=O)[C@H](CCCCN)NC(=O)[C@H](Cc2ccc(O)cc2)NC(=O)[C@H](CC(C)C)NC(=O)[C@@H]2CCCN2C(=O)[C@H](C)NC(=O)CNC(=O)CNC(=O)[C@H](CO)NC(=O)CNC(=O)CNC(=O)[C@H](CO)NC(=O)[C@H](CCCCN)NC(=O)[C@H](CC(C)C)NC(=O)[C@H](CC(C)C)NC(=O)[C@H](CCCCN)NC(=O)[C@H](CCCNC(=N)N)NC(=O)[C@H]([C@@H](C)CC)NC(=O)[C@H]([C@@H](C)CC)NC(=O)[C@H](CCCCN)NC(=O)[C@H](CCCCN)NC(=O)[C@H](Cc2ccc(O)cc2)NC(=O)[C@H](CC(C)C)NC(=O)[C@@H]2CCCN2C(=O)CNC(=O)CNC(=O)[C@@H](NC(=O)CN)CSSC[C@@H](C(N)=O)NC(=O)[C@H](CC(C)C)NC(=O)[C@H](CCCCN)NC(=O)[C@H](CCCNC(=N)N)NC(=O)[C@H]([C@@H](C)CC)NC1=O, the IC50 was 16400 ± 2000 nM (parasite growth; 3D7; 72 h, 5% serum plus Albumax II).
With CCC1=C(C)C(=CNC2CCCCCCC2)N=C1c1ccc[nH]1 the IC50 was 75 nM (parasite growth; 7G8, chloroquine-resistant).
